# Published values gathered from unrelated publications.
# Compare with care: the assays were run in different laboratories. Values joined by “and” are separate records of one study, mostly repeats; a detail may differ. Numbers after ± are the reported error.
Compound,target or system,test,system,conditions,how to read,measurement,value
COCC1CN(C2CCN(c3cc(OC)c(Nc4ncc(Br)c(Nc5ccc6c(c5P(C)(C)=O)OCCO6)n4)cc3C)CC2)C1,,,"EGFR-mutant NSCLC patients, plasma","oral, 150 mg single dose, geometric mean",,AUC(0-inf),15700 ng·h/mL
CC(C)C[C@@H]1NC(=O)[C@H](CCCCN)NC(=O)CNC(=O)[C@H]2CCCN2C(=O)[C@H](CCCCN)NC(=O)[C@H](CC(C)C)NC(=O)[C@H](CCCCN)NC(=O)[C@H](CC(C)C)NC(=O)[C@H](CCCCN)NC(=O)C(N)CCC=CCCCC(C(N)=O)NC(=O)[C@H](CCCCN)NC(=O)[C@H](CC(C)C)NC(=O)[C@H](CCCCN)NC1=O (some centres unmarked),,RP-HPLC C18,,hydrophobicity,,retention time,15.5 min
C=CC(=O)Nc1cccc(Cn2ncc3cnc(Nc4cnn(CCOC)c4)nc32)c1,,,dog hepatocytes,,,scaled intrinsic clearance,614 mL/min/kg
[11CH3]N1CCC(NC(=O)c2cc(-c3c(O)cc(O)cc3Oc3ccc([N+](=O)[O-])cc3)on2)CC1,,,"Wistar rat, female, healthy, spleen","intravenous, 2 min",,tissue uptake,0.6 ± 0.1 %ID
CN(CC1CCCN(CCc2cccc(C(F)(F)F)c2)C1)C(=O)c1ccco1 (centres unmarked),Trypanosoma cruzi,"reporter mRNA translation, inhibitor, refers to: capped polyadenylated Renilla luciferase mRNA",cell-free extract,concentration not given,relative to: positive over negative control,translation activity,90.2% and 110% and 93.8% and 97.3%
O=C([O-])CN1CCN(CC(=O)[O-])CCN(C(CO)C(O)CO)CCN(CC(=O)[O-])CC1.[Dy+3] (centres unmarked),,ICP-MS,cynomolgus monkey,"dose not given, 5 d, mass balance group",relative to: dose,cumulative urinary excretion,98.9%
O=C(O)C(Cc1c[nH]cn1)N1C(=O)c2ccc3c4ccc5c6c(ccc(c7ccc(c2c37)C1=O)c64)C(=O)N(CCN1CCCCC1)C5=O (centres unmarked),,shake flask,aqueous buffer,pH 7,,logD,2.41
CC(C)n1ncc2c(C(=O)NCC3CNC3)cc(C3CC3)nc21,,metabolic stability,"mouse, liver microsomes",,,scaled CLint,< 38 mL/min/kg
Cc1c(Cc2cccc(OC(C)(C)C(=O)O)c2)c2ccc(C(=O)N[C@@H](C)c3cc(C(C)(C)C)ccc3F)cc2n1CC(C)C,,,human liver microsomes,"1 µM, with: microsomes 1 mg/mL",,half-life,52 min
Cc1cc(-c2ccc(C(=O)[C@@H]3CCCC[C@H]3C(=O)Nc3cnn4c3C(=O)NCC4)cc2)[nH]n1,,,"human, urine","oral, 200 mg, 96-120 h",relative to: dose,recovery of radioactivity per interval,0.02%
CCOC(=O)C1CCCN(Cc2ccc(-c3ccccc3)cc2)C1 (centres unmarked),Trypanosoma cruzi,"reporter mRNA translation, inhibitor, refers to: Renilla luciferase mRNA",cell-free extract,"concentration not given, test 2",relative to: positive over negative control,translation activity,106% and 111%
[123I]c1ccc2nc(-c3ccc(-n4ccnn4)nc3)cn2c1,,,"male Wistar rat, blood","intravenous, 4 MBq, 24 h",,tracer uptake,0.007 %ID/g
C=C[C@]1(C)C[C@@H](OC(=O)CSc2ccc(NC(=O)c3ccco3)cc2)[C@]2(C)[C@H](C)CC[C@]3(CCC(=O)[C@H]32)[C@@H](C)[C@@H]1O,,,"Mycoplasma gallisepticum-infected chickens, plasma","intramuscular, 5 mg/kg, 4 h",,plasma concentration,110 ng/mL and 125 ng/mL and 116 ng/mL and 117 ng/mL and 165 ng/mL and 70.6 ng/mL and 108 ng/mL
COc1ccc2c(c1)CCn1c[n+]3c(c1-2)-c1ccc(OC)cc1CC3,,,"female NSG mice, blood","6 mg/kg, day 14, 5 days per week",,Basophils,0%
O=C([O-])CN1CCN(CC(=O)[O-])CCN(CC(CCCc2ccccc2[N+](=O)[O-])N(CC(=O)[O-])CC(=O)[O-])CC1.[90Y+3] (centres unmarked),,TLC,human serum,"48 h, pH 7, 37 °C",,intact radiolabelled complex,99.8 ± 0.1%
CC(C)(O)c1ncc([S@](N)(=O)=NC(=O)Nc2c3c(cc4c2CCC4)CCC3)s1,,refers to: infections and infestations,healthy human,"oral, 600 mg, SDD formulation",,subjects with TEAEs,17%
O=C(Nc1cnccc1-c1ccc([18F])nc1)c1ccnc(NC(=O)C2CC2)c1,,,"FVB/NJ mouse, both sexes, brain","intravenous, 50 min, with: tariquidar 15 mg/kg iv",,SUV,0.142

# Excerpt of the above:
Compound,target or system,test,system,conditions,how to read,measurement,value
C=C[C@]1(C)C[C@@H](OC(=O)CSc2ccc(NC(=O)c3ccco3)cc2)[C@]2(C)[C@H](C)CC[C@]3(CCC(=O)[C@H]32)[C@@H](C)[C@@H]1O,,,"Mycoplasma gallisepticum-infected chickens, plasma","intramuscular, 5 mg/kg, 4 h",,plasma concentration,110 ng/mL and 125 ng/mL and 116 ng/mL and 117 ng/mL and 165 ng/mL and 70.6 ng/mL and 108 ng/mL
COc1ccc2c(c1)CCn1c[n+]3c(c1-2)-c1ccc(OC)cc1CC3,,,"female NSG mice, blood","6 mg/kg, day 14, 5 days per week",,Basophils,0%
O=C([O-])CN1CCN(CC(=O)[O-])CCN(CC(CCCc2ccccc2[N+](=O)[O-])N(CC(=O)[O-])CC(=O)[O-])CC1.[90Y+3] (centres unmarked),,TLC,human serum,"48 h, pH 7, 37 °C",,intact radiolabelled complex,99.8 ± 0.1%
